Assay results collected from several papers.
Compare with care: the assays were run in different laboratories. “And” joins repeats or separate records; there may be more than shown. ± gives the spread as reported. In brackets after ≈: the same amount, converted by molar mass.

| Compound | cell line | test | conditions | how to read | quantity | value |
| --- | --- | --- | --- | --- | --- | --- |
| COc1c(C)c2c(c(O)c1C/C=C(\C)CCC(=O)O)C(=O)OC2 | NCI-H358M | cell proliferation | – | – | IC50 | 1910 nM |
| Oc1cc(Cl)ccc1Oc1ccc(Cl)cc1Cl | HepG2 | high content imaging, measured: nuclear size | 24 h, distribution mode 1 | – | point of departure | 5.62 µM and 9.55 µM |
| O=C1N(Cc2ccccc2Cl)c2ccccc2C12NN=C(c1ccccc1)S2 (centres unmarked) | MDA-MB-468 | gene expression array, measured: GNG10 mRNA | 10 µM, 12 h | reference: untreated, down | fold change | 1.61 |
| CC(c1ccccc1)(c1ccc(O)cc1)c1ccc(O)cc1 | HepG2 spheroids | Hoechst flow cytometry | 1 µM, 24 h | – | G2 phase cells | 19.4 ± 2.18% |
| CC1(C)O[C@@H]1COc1c2occc2cc2ccc(=O)oc12 | THP-1 | pyroptotic LDH release | 2 µM, 40 min, with: LPS then nigericin | – | inhibition | -7.81% |
| CCN(CC)c1ccc(C=NNC(=O)CSc2nc3ccccc3c(=O)n2Cc2ccc(S(N)(=O)=O)cc2)c(O)c1 | KM12 | NCI five-dose screen | – | – | CC50 | > 100000 nM |
| C[C@@H](O)[C@H]1C(=O)N2C(C(=O)O)=C(SCCN=CN)C[C@H]12 | Escherichia coli DH5α expressing KPC-180 | bacterial growth | – | – | MIC | 1 µg/mL (≈ 3.34 µM) |
| C[C@@H]1O[C@@H](O[C@H]2C[C@@H](O)[C@]3(CO)[C@H]4[C@H](O)C[C@]5(C)[C@@H](C6=CC(=O)OC6)CC[C@]5(O)[C@@H]4CC[C@]3(O)C2)[C@H](O)[C@H](O)[C@H]1O | human iPSC cardiomyocytes | plate-normalised | concentration not given, hit retest | reference: vehicle controls, SDs below control | MyBP-C level change | 13.7 SD |
| Cc1cnc2ccc3c(nc(N)n3C)c2n1 | BALB/c 3T3 | colony formation | 0.5 µM | – | plating efficiency | 48% |
| CCCC[N+]1(C)[C@@H]2C[C@@H](OC(=O)[C@H](CO)c3ccccc3)C[C@H]1[C@@H]1O[C@@H]12 (some centres unmarked) | THP-1 | pyroptotic LDH release | 2 µM, 40 min, with: LPS then nigericin | – | inhibition | -27% |
| Oc1ccc(C(c2ccc(O)cc2)(C(F)(F)F)C(F)(F)F)cc1 | HepG2 spheroids | Hoechst flow cytometry | 0.10 µM, 96 h | – | G1 phase cells | 70.7 ± 4.39% |
| Nc1ncnc2c1ncn2[C@@H]1O[C@@H]2COP(=O)(O)O[C@H]3[C@@H](O)[C@H](n4cnc5c(=O)[nH]cnc54)O[C@@H]3COP(=O)(O)O[C@H]2[C@H]1O | HFF-1 | RNA sequencing Reactome analysis, measured: Reactome R-HSA-9704331 defective HRR (PALB2, BRCA1 binding) | with: West Nile virus infection | reference: West Nile virus infected cells, upregulated pathway | pathway fold enrichment | 7.67 |
| Cc1cc(C(C)(C)c2ccc(O)c(C)c2)ccc1O | HepG2 spheroids | planimetry | 160 µM, 96 h | reference: solvent control | spheroid surface area | 1.35 fold |
| CCCCC/C=C\C/C=C\C/C=C\C/C=C\CCCC(=O)NCCO | ReNcell VM | YO-PRO-1 staining | 24 h | – | concentration increasing apoptotic cells | ≤ 0.48 µM |
| C[C@@H]1C[C@@H]([C@H](O)CC2CC(=O)NC(=O)C2)C(=O)[C@@H](C)C1 | MDA-MB-231 BAX/BAK siRNA knockdown | CellTiter-Glo | concentration not given | reference: normalised luminescence | viability | 16.2% and 13.5% |
| COc1cc(CCC[P+](c2ccccc2)(c2ccccc2)c2ccccc2)c(OC)c2c1OCO2.[I-] | OVCAR-5 | SRB | – | – | LC50 | > -4 log M |
| CO[C@H]1C[C@@H](C[C@H](C)[C@H]2CC(=O)[C@@H](C)/C=C(\C)[C@H](O)[C@H](OC)C(=O)[C@@H](C)C[C@@H](C)/C=C/C=C/C=C(\C)[C@H](OC)C[C@H]3CC[C@H](C)[C@](O)(O3)C(=O)C(=O)N3CCCC[C@@H]3C(=O)O2)CC[C@@H]1OCCO (racemic) | Huh-7 | MTT | – | reference: CC50 over IC50 | selectivity index | 12.7 |
| Oc1ccc(C2(c3ccc(O)cc3)c3ccccc3-c3ccccc32)cc1 | HepG2 spheroids | Hoechst flow cytometry | 40 µM, 24 h | – | G2 phase cells | 18.8 ± 3.13% |
| [CH3][Hg][Cl] | LUHMES MT1G-HiBiT G3 | measured: MT1G | 4 µM, 8 h | reference: DMSO, maximum | luciferase activity | 21 fold |

| Compound | cell line | test | conditions | how to read | quantity | value |
| --- | --- | --- | --- | --- | --- | --- |
| CC(C)[C@H](N)C(=O)N1CCC[C@H]1B(O)O | Ker-CT keratinocytes, CASP1 knockout | inducer, ELISA | concentration not given | – | IL-1β release | 9.83 pg/mL |
| CC(=O)O[C@H]1CC[C@]2(C=O)[C@H]3CC[C@]4(C)[C@@H](C5=CC(=O)OC5)CC[C@]4(O)[C@@H]3CC[C@]2(O)C1 | human iPSC cardiomyocytes | plate-normalised | concentration not given, hit retest | reference: vehicle controls, SDs below control | MyBP-C level change | 15.7 SD |
| CC(C)N1CCC(NC2CCN(c3cccc(-c4cc5cc(F)ccc5[nH]4)c3)CC2)CC1 | OVCAR-4 | – | – | – | GI50 | 1890 nM |
| CCOc1ccc(Cc2nc3cc(N(C)S(=O)(=O)c4cccs4)ccc3n2CC2CCCCC2)nc1 | HEK293T ATF4-FLuc reporter | ATF4 reporter gene, activator, luciferase reporter | – | – | EC50 | 7190 nM |
| CC(C)(C)c1cc(C=C(C#N)C#N)cc(Br)c1O | hCMEC/D3 | outcome: decreased, Western blot, measured: Akt (Ser473) | 100 µM, no insulin | – | phosphorylation | decreased |
| CN1CCc2[nH]c(-c3ccnc(NC(=O)[C@@H](CC(F)F)c4ccc(F)cc4)c3)c(Nc3ccccc3)c2C1=O | MOLM-13 | mRNA level, RNA-seq, measured: TRIB3 | 200 nM, 24 h | reference: DMSO | log2 fold change | -3.31 |
| CC[C@H](C)[C@H]1O[C@]2(C=C[C@@H]1C)C[C@@H]1C[C@@H](C/C=C(\C)[C@@H](O[C@H]3C[C@H](OC)[C@@H](O[C@H]4C[C@H](OC)[C@@H](O)[C@H](C)O4)[C@H](C)O3)[C@@H](C)/C=C/C=C3\CO[C@@H]4[C@H](O)C(C)=C[C@@H](C(=O)O1)[C@]34O)O2 | THP-1 | pyroptotic LDH release | 2 µM, 40 min, with: LPS then nigericin | – | inhibition | 10.4% |
| CN1CCN(C2(CNC3CCN(c4cccc(-c5cc6cc(F)ccc6[nH]5)c4)CC3)CCC2)CC1 | KM12 | – | – | – | GI50 | 1420 nM |
| OC1CCN(c2ccc(/C=N/NC(=S)Nc3ccc(F)cc3)cc2)CC1 | BEAS-2B and A549 | MTT | – | reference: IC50 BEAS-2B over IC50 A549 | selectivity ratio | 10.3 |
| COc1ccc2c(c1)[nH]c1c(C)nccc12 | DU-145 | bisulfite pyrosequencing, measured: RASSF1A promoter CpG site 18 | concentration not given | reference: vehicle | methylation reduction | 1.5% |
| Cc1nn(-c2nc3c(F)cc(F)cc3s2)c(O)c1C(c1ccc(C(F)(F)F)cc1)c1c(C)nn(-c2nc3c(F)cc(F)cc3s2)c1O | RAW-ISG | CCK-8 | 3.125 µM | – | viability | 104% and 106% and 107% |
| C#Cc1cccc(Nc2ncnc3cc(OCCOC)c(OCCOC)cc23)c1 | SK-BR-3 | MTT | – | – | sublethal dose | 2 µM |
| COc1cccc2c1C(=O)c1c(O)c3c(c(O)c1C2=O)C[C@@](O)(C(=O)CO)C[C@@H]3O[C@H]1C[C@H](N)[C@H](O)[C@H](C)O1 | HCT-116 p53-/- | MTT | concentration not given | reference: p53-/- over parental cells | fold difference in cytotoxicity | 2 fold |
| COc1c(CCC[P+](c2ccccc2)(c2ccccc2)c2ccccc2)cc2c(c1OC)OCO2.[I-] | KM12 | SRB | – | – | GI50 | -6.19 log M |
| O=c1c(O)c(-c2ccc(O)c(O)c2)oc2cc(O)cc(O)c12 | SH-SY5Y Aβ-GFP cells | Aβ folding | 1 to 5 µM | reference: untreated induced cells | GFP fluorescence | 116 to 124% |
| C/C=C(/C)C(=O)O[C@H]1C(C)=C2[C@H]([C@@H]1OC(=O)CCCCCCC)[C@@](C)(OC(C)=O)C[C@H](OC(=O)CCC)[C@@]1(O)[C@H]2OC(=O)[C@@]1(C)O | HEK-293T | RNA-seq GSEA, measured: Hallmark heme metabolism | 500 nM, 6 h | direction not given | normalized enrichment score | 1.61 |
| CCCC[C@@H]1NC(=O)[C@H](Cc2ccc(O)cc2)NC(=O)[C@@H]2CCCN2C(=O)[C@H](CC(=O)O)NC(=O)[C@H](C)NC(=O)[C@H](Cc2ccccc2)NC(=O)[C@@H]2CSCCC(=O)N3CN(CN(C3)C(=O)CCSC[C@@H](C(=O)N[C@@H](C)C(N)=O)NC1=O)C(=O)CCSC[C@H](NC(=O)[C@H](C)NC(C)=O)C(=O)N[C@@H]([C@@H](C)CC)C(=O)N[C@@H](CCC(=O)O)C(=O)N[C@@H](CCC(=O)O)C(=O)N[C@H](CCCCNC(=O)CCc1cn(CCOCCOCCOCCN(CCOCCOCCOCCC(=O)N[C@H]3CSCCC(=O)N4CN5CN(C4)C(=O)CCSC[C@H](NC(=O)[C@@H](CC(=O)O)NC(=O)[C@H](Cc4cccc6ccccc46)NC(=O)[C@@H]4CCCN4C3=O)C(=O)N[C@@H](CCSC)C(=O)N[C@@H](CCCCNC(=N)N)C(=O)N[C@@H](CC(=O)O)C(=O)N[C@@H](Cc3c[nH]c4ccccc34)C(=O)N[C@@H](CO)C(=O)N[C@@H]([C@@H](C)O)C(=O)N3CCC[C@H]3C(=O)N3C[C@H](O)C[C@H]3C(=O)N[C@@H](Cc3c[nH]c4ccccc34)C(=O)N[C@H](C(N)=O)CSCCC5=O)CCOCCOCCOCCn3cc(CCC(=O)NCCCC[C@H]4NC(=O)[C@H](CCC(=O)O)NC(=O)[C@H](CCC(=O)O)NC(=O)[C@H]([C@@H](C)CC)NC(=O)[C@@H](NC(=O)[C@H](C)NC(C)=O)CSCCC(=O)N5CN6CN(C5)C(=O)CCSC[C@H](NC(=O)[C@H](Cc5ccc(O)cc5)NC(=O)[C@H](CCC(N)=O)NC4=O)C(=O)N[C@@H](Cc4ccccc4)C(=O)N[C@@H](C)C(=O)N[C@@H](CC(=O)O)C(=O)N4CCC[C@H]4C(=O)N[C@@H](Cc4ccc(O)cc4)C(=O)N[C@@H](CCCC)C(=O)N[C@H](C(=O)N[C@@H](C)C(N)=O)CSCCC6=O)nn3)nn1)C(=O)N[C@@H](CCC(N)=O)C(=O)N[C@@H](Cc1ccc(O)cc1)C(=O)N2 | human PBMC with HT-1376 coculture | IL-2 secretion | with: anti-CD3 | – | EC50 | 0.83 ± 0.19 nM |
| COC[C@@H]([C@H](O)[C@H](O)C(=O)NCC[C@H](C)c1nc(/C=C/C[C@@H]2O[C@]3(C[C@@H](O)[C@@H]2C)O[C@H]([C@H](C[C@H](O)[C@H](C)[C@H](O)[C@H](C)/C=C(C)/C(C)=C/C=C/C(C)=C\C#N)OC)[C@H](OP(=O)(O)O)C3(C)C)co1)N(C)C | MDA-MB-231 BAX/BAK siRNA knockdown | CellTiter-Glo | concentration not given | reference: normalised luminescence | viability | 54% and 37.2% |
| Cn1cncc1C1=CN(c2ncnc3[nH]cnc23)CCS1 | COLO 205 | – | colon cancer | – | CC50 | > 200000 nM |

Excerpt of the above:
| Compound | cell line | test | conditions | how to read | quantity | value |
| --- | --- | --- | --- | --- | --- | --- |
| Nc1ncnc2c1ncn2[C@@H]1O[C@@H]2COP(=O)(O)O[C@H]3[C@@H](O)[C@H](n4cnc5c(=O)[nH]cnc54)O[C@@H]3COP(=O)(O)O[C@H]2[C@H]1O | HFF-1 | RNA sequencing Reactome analysis, measured: Reactome R-HSA-9704331 defective HRR (PALB2, BRCA1 binding) | with: West Nile virus infection | reference: West Nile virus infected cells, upregulated pathway | pathway fold enrichment | 7.67 |
| Cc1cc(C(C)(C)c2ccc(O)c(C)c2)ccc1O | HepG2 spheroids | planimetry | 160 µM, 96 h | reference: solvent control | spheroid surface area | 1.35 fold |
| CCCCC/C=C\C/C=C\C/C=C\C/C=C\CCCC(=O)NCCO | ReNcell VM | YO-PRO-1 staining | 24 h | – | concentration increasing apoptotic cells | ≤ 0.48 µM |
| C[C@@H]1C[C@@H]([C@H](O)CC2CC(=O)NC(=O)C2)C(=O)[C@@H](C)C1 | MDA-MB-231 BAX/BAK siRNA knockdown | CellTiter-Glo | concentration not given | reference: normalised luminescence | viability | 16.2% and 13.5% |
| COc1cc(CCC[P+](c2ccccc2)(c2ccccc2)c2ccccc2)c(OC)c2c1OCO2.[I-] | OVCAR-5 | SRB | – | – | LC50 | > -4 log M |
| CO[C@H]1C[C@@H](C[C@H](C)[C@H]2CC(=O)[C@@H](C)/C=C(\C)[C@H](O)[C@H](OC)C(=O)[C@@H](C)C[C@@H](C)/C=C/C=C/C=C(\C)[C@H](OC)C[C@H]3CC[C@H](C)[C@](O)(O3)C(=O)C(=O)N3CCCC[C@@H]3C(=O)O2)CC[C@@H]1OCCO (racemic) | Huh-7 | MTT | – | reference: CC50 over IC50 | selectivity index | 12.7 |
